Results gathered from unrelated publications.
Numbers after ± are the reported error. Converted amounts (≈) assume the structure as drawn.
BCHE: Cholinesterase (BCHE, Homo sapiens, UniProt P06276)
Oprk1: Kappa-type opioid receptor (Oprk1, Mus musculus, UniProt P33534)
OPRK1: Kappa-type opioid receptor (OPRK1, Homo sapiens, UniProt P41145)

Amino acid sequences for entries named in this document (tags omitted).
UniProt P06276, whole entry, looked up: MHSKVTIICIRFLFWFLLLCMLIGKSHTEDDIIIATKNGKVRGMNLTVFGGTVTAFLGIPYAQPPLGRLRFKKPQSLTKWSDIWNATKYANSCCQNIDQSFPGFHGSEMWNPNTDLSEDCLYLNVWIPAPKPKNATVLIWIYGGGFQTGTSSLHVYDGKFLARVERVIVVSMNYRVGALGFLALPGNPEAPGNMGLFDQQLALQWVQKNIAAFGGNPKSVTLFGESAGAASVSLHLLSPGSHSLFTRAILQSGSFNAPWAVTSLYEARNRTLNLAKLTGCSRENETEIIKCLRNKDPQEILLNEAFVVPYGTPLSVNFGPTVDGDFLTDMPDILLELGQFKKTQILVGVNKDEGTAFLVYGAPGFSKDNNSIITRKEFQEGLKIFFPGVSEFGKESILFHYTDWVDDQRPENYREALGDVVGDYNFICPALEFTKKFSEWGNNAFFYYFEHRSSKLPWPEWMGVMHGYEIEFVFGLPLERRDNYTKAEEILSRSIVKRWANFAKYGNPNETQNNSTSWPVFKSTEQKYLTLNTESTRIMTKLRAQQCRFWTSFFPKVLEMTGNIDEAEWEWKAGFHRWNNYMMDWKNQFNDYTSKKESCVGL
UniProt P33534, whole entry: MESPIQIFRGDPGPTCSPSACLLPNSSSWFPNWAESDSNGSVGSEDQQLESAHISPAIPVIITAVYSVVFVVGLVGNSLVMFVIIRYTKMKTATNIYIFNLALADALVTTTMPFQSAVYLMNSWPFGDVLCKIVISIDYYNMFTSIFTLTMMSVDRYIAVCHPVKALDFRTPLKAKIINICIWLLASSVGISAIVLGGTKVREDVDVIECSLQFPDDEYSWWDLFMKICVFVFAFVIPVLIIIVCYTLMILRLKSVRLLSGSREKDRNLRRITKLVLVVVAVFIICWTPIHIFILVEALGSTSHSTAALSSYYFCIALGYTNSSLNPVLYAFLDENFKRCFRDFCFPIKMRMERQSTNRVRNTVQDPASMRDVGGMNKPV
UniProt P41145, whole entry: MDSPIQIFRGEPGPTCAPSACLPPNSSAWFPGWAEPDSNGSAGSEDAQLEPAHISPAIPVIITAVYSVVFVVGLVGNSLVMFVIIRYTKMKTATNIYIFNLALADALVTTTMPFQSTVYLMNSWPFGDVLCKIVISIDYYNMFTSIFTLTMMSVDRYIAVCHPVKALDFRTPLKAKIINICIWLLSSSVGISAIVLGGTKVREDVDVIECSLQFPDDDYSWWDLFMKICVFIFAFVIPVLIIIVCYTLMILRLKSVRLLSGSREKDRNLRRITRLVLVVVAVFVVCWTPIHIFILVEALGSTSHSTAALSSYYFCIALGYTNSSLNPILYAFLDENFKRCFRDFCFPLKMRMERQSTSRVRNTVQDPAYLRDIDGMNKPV
UniProt P28221, whole entry: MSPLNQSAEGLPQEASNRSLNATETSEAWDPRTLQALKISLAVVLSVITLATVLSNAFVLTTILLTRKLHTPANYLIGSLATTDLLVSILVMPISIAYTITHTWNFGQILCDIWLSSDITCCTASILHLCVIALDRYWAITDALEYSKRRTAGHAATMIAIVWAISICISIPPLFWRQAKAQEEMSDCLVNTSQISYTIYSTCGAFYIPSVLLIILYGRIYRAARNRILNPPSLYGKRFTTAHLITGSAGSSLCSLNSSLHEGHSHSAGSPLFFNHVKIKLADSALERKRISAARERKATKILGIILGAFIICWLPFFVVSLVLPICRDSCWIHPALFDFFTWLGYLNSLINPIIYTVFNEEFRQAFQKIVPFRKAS
UniProt P07949, whole entry G810C, looked up: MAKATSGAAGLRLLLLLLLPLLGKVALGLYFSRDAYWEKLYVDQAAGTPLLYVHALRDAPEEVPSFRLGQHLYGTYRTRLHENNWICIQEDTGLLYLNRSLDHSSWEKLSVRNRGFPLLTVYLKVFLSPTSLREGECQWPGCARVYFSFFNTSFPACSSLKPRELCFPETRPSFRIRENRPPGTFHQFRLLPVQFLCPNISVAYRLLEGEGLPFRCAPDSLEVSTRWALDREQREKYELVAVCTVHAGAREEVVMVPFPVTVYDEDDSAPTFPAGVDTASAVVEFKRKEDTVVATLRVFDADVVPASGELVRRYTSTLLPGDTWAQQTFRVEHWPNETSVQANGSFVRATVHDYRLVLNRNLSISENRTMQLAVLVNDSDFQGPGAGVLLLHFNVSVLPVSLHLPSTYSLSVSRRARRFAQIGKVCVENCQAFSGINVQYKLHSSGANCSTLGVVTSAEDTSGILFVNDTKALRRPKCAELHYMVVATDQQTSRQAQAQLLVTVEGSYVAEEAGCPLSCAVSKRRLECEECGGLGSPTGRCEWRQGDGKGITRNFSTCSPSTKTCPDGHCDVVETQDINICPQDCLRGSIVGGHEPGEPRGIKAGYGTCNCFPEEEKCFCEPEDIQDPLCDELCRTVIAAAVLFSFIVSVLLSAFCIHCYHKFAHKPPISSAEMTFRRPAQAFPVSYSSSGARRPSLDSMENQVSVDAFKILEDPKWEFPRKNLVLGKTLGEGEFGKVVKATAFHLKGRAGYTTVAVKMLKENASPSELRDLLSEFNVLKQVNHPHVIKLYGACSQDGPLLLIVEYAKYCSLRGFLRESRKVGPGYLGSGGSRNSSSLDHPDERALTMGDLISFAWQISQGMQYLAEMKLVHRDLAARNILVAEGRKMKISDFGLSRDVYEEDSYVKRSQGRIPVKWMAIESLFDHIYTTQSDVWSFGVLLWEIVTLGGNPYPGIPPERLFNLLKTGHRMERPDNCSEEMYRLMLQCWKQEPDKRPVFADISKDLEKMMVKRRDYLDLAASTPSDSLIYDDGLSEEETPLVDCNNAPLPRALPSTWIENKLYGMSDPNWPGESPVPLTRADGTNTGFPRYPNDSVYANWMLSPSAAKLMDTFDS
UniProt P9WIQ1, whole entry: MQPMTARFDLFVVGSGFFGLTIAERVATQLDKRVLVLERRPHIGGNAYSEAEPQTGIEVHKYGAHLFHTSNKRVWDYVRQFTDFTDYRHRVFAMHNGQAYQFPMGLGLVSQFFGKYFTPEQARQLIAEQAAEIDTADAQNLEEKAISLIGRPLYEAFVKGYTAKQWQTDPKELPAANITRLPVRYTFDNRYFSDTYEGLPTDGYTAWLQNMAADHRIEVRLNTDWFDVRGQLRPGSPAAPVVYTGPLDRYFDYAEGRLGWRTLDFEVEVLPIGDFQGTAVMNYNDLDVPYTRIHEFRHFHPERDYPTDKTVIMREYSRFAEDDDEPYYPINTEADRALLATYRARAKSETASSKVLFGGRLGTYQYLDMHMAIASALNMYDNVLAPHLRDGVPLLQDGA
UniProt Q08J23, whole entry: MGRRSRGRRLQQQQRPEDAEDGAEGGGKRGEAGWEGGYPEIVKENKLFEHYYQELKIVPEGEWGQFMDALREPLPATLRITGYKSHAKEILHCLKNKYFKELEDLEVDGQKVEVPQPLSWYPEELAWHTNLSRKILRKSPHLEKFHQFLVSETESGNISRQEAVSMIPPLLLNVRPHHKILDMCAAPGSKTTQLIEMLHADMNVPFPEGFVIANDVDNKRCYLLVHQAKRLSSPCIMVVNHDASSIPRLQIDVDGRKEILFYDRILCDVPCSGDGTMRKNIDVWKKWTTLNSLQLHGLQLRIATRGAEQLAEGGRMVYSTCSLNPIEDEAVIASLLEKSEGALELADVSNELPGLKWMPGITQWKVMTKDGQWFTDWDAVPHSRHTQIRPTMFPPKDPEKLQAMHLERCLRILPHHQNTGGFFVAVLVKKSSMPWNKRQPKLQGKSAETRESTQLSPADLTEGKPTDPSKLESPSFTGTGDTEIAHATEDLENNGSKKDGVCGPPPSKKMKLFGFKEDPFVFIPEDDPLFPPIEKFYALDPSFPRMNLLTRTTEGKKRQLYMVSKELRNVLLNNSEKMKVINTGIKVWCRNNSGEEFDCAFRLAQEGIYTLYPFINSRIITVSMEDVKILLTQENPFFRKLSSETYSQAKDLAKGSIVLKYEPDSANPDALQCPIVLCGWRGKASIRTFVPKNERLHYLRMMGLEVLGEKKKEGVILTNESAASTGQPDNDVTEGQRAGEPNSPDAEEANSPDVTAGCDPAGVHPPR
UniProt P35372, whole entry: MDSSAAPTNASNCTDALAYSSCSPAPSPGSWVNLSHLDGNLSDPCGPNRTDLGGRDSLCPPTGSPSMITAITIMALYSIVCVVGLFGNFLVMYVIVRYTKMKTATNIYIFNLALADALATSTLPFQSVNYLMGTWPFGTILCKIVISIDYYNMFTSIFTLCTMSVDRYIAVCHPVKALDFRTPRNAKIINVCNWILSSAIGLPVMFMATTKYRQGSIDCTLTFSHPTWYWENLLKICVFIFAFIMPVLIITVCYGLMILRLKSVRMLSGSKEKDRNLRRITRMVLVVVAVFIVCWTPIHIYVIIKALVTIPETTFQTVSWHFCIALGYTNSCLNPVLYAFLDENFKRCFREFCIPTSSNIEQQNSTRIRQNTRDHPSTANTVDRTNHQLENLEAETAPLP
UniProt Q62645, whole entry, looked up: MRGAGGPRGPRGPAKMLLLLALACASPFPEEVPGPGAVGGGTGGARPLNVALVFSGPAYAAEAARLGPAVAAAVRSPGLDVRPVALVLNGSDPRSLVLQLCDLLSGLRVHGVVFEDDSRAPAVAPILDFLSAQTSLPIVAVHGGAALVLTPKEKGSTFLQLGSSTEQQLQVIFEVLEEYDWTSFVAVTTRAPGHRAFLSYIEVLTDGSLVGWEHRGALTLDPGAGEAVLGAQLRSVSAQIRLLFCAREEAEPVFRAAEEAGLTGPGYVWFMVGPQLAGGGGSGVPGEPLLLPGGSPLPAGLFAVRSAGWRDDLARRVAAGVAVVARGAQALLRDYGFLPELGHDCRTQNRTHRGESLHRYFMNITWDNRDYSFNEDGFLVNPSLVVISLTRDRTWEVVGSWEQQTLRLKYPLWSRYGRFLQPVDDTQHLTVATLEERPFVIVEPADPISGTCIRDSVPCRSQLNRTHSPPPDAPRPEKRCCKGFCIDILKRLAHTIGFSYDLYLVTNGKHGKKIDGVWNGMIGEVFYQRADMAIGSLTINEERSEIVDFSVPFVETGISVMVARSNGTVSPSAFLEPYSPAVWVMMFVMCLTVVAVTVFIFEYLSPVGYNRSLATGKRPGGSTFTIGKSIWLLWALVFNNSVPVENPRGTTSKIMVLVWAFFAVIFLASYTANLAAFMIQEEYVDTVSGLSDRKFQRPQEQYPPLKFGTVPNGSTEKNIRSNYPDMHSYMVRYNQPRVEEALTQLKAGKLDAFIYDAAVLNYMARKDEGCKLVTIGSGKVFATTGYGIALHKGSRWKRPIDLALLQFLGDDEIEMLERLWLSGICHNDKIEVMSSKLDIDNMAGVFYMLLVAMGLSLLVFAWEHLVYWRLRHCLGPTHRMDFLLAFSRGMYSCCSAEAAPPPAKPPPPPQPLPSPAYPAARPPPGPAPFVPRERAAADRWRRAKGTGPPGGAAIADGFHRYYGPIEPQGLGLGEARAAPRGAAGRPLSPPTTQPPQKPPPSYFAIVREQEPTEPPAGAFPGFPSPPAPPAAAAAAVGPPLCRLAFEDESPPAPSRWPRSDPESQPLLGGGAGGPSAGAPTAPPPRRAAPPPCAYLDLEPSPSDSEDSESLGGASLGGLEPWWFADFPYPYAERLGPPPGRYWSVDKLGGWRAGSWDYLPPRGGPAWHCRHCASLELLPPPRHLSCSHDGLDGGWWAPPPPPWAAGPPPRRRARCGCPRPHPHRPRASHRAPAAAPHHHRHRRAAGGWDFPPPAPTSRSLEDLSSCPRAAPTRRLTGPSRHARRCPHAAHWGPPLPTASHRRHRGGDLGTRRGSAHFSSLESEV
UniProt Q04771, whole entry R206H, looked up: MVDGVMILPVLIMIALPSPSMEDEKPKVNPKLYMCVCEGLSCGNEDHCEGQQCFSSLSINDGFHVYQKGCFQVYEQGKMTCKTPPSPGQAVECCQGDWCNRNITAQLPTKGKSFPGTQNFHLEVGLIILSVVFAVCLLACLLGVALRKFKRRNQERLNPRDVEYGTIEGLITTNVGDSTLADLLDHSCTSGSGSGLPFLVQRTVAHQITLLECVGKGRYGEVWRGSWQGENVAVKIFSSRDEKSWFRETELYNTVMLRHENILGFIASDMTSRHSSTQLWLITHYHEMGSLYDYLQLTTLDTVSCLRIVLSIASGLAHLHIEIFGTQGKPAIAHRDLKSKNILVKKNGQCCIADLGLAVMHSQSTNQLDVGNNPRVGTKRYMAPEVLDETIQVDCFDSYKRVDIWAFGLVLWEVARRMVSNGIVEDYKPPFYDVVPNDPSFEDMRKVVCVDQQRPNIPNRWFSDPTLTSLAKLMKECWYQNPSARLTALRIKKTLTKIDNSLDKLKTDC

| Substance | tested on | assay | system | setting | scale | measurement | value |
| --- | --- | --- | --- | --- | --- | --- | --- |
| CCCN1CCN(c2ccc3c(c2)C2CC3CCN2C(=O)OCc2ccccc2)CC1 (stereo not drawn) | 5-hydroxytryptamine receptor 1D (HTR1D, Homo sapiens, UniProt P28221) | binding, radioligand binding |  |  |  | Ki | 1910 nM |
| Cc1ccc(C(=O)Nc2ccc(CN3CCN(C)CC3)c(C(F)(F)F)c2)cc1C#Cc1cnc2cccnn12 | Proto-oncogene tyrosine-protein kinase receptor Ret, KIF5B-RET fusion (RET, Homo sapiens, UniProt P07949, G810C) | inhibitor |  | 0.02 µM, cell-based |  | inhibition | < 25% |
| Cc1ccc(S(=O)(=O)Nc2ccccc2N2CCCCC2)s1 | BCHE | enzyme activity, inhibitor |  | Triton-containing buffer |  | IC50 | inactive |
| CC1(C)S[C@@H]2CS[C@@H](CS)N2[C@H]1C(=O)O | Metallo-beta-lactamase VIM-2 (VIM-2, Escherichia coli, UniProt Q5U7L7, R205L) | slow-binding inhibitor | Klebsiella pneumoniae | together with: nitrocefin |  | k2 (E*I formation) | 1e-05 ± 0.003 s⁻¹ |
| COCOc1ccc2nc3ccc(=O)cc-3oc2c1 | Mycobacterium tuberculosis |  | mc2 6206 bedaquiline-resistant MmpL5 regulator mutant | 7 days |  | MIC90 | 14.3 µM (≈ 3.68 µg/mL) |
| ethoxymethyl salvinorin B | Oprk1 | receptor internalization, agonist |  | concentration not given | relative to: dynorphin A | log intrinsic relative activity | 0.66 ± 0.23 |
| CS(=O)(=O)NC(=O)C(Cc1ccc(I)cc1)Nc1nc(-c2ccc(Cl)c(Cl)c2)cs1 (stereo not drawn) | UDP-galactopyranose mutase (glf, Mycobacterium tuberculosis, UniProt P9WIQ1) | enzyme activity, inhibitor |  | 50 µM |  | inhibition | > 90% |
| CCCCCCC1c2ccc(O)cc2Oc2cc(O)ccc21 | Pseudomonas aeruginosa |  | MDR clinical isolate | together with: NAB7061 4 µg/mL |  | MIC | 2.8 µg/mL (≈ 9.38 µM) |
| C[C@H](Cc1ccc(O)c(O)c1)[C@@H](C)Cc1ccc(O)c(O)c1 |  |  | human skin | 3% solution, 8 h, skin UV-treated 30 min |  | amount in epidermis | 12.7 ± 0.88 µg |
| CSc1nc(Cl)cc(Sc2nnc(-c3cc(C(F)(F)F)cc(C(F)(F)F)c3)[nH]2)n1 | Escherichia coli |  | MC4100 | together with: PMBN 25 µg/mL |  | MIC | 0.7 µg/mL (≈ 1.48 µM) |
| CC#C/C(=N\OC[C@H]1COCCN1)c1ccc2ncnc(Nc3ccc(OCc4cccc(F)c4)c(Cl)c3)c2c1 | cAMP-dependent protein kinase catalytic subunit alpha (PRKACA, Homo sapiens, UniProt P17612) | kinase activity |  | 10 µM |  | inhibition | -7.2% |
| methoxymethyl salvinorin B | Oprk1 | agonist |  |  | relative to: G protein over internalization, vs dynorphin A | log bias factor | 0.34 ± 0.25 |
| C=CC(=O)N1C[C@H](c2ccc(Br)cc2)[C@@H]1C(=O)Nc1cccc2cccnc12 | RNA cytosine C(5)-methyltransferase NSUN2 (NSUN2, Homo sapiens, UniProt Q08J23) | methyltransferase activity |  | highest concentrations tested |  | maximal inhibition | ~80% |
| U-69593 | OPRK1 | G protein activation, agonist | CHO-hKOR cell membranes |  | relative to: reference agonist | Emax | 100% |
| CC[C@](O)([C@H]1C[C@@]23CC[C@]1(OC)[C@@H]1Oc4c(O)ccc5c4[C@@]12CCN(CC1CC1)[C@@H]3C5)C(C)(C)C | Mu-type opioid receptor (OPRM1, Homo sapiens, UniProt P35372) | binding, radioligand displacement | CHO | together with: [3H]DAMGO |  | Ki | 4 ± 0.57 nM |
| COc1ccc(OC[C@H]2c3cccn3CC(=O)N2Cc2cccc(F)c2)cc1 | Glutamate receptor ionotropic, NMDA 2D, with GluN1 (Rattus norvegicus, UniProt Q62645) | ion current, whole-cell patch clamp | HEK293T cells, transfected | 10 µM, together with: 1 mM glutamate for 10 ms plus 100 µM glycine |  | charge transfer | -110 ± 60 nA·ms |
| CCN(CC)C(=O)Oc1ccc(C(=O)Nc2cccc3cc[nH]c23)cc1 | P2X purinoceptor 2 (P2RX2, Homo sapiens, UniProt Q9UBL9) | modulator, two-electrode voltage clamp | Xenopus oocytes | 20 µM, together with: 9 µM ATP | relative to: agonist alone | current response | 93.1 ± 1.6% |
| CN(C(=O)Cc1cccc2occc12)[C@H]1CC[C@@]2(CCCO2)C[C@@H]1N1CCCC1 | OPRK1 | receptor internalization, agonist |  | concentration not given | relative to: dynorphin A | log intrinsic relative activity | 0.67 ± 0.14 |
| Cc1ccc2nc(-c3ccc4nc(-c5ccc(NC(=O)c6ccc7nc(-c8ccc(N)cc8)sc7c6)cc5)sc4c3)sc2c1S(=O)(=O)O | MBHA DNA substrate | SYBR Green I displacement |  | 100 µM |  | DNA bound | 59 ± 4% |
| Cc1ccc(S(=O)(=O)N(C)CC(=O)N(Cc2ccc(C3CCCCC3)cc2)c2ccc(C(=O)O)c(O)c2)cc1 | Signal transducer and activator of transcription 1, homodimer (Mus musculus, UniProt P42225) | EMSA, refers to: hSIE probe | NIH3T3/hEGFR nuclear extracts | 200 µM, together with: EGF |  | DNA-binding activity | inhibited |
| CN(C(=O)Cc1ccc(Cl)c(Cl)c1)[C@H](CN1CCCC1)c1ccccc1 | OPRK1 | receptor internalization, agonist |  | concentration not given | relative to: dynorphin A | log intrinsic relative activity | 0.7 ± 0.15 |
| O=C(NOCC1CC1)c1cc(Br)c(F)c(F)c1Nc1ccc(I)cc1Cl | BCHE | enzyme activity, inhibitor |  | Triton-containing buffer |  | IC50 | inactive |
| CCN1CCN(Cc2ccc(NC(=O)c3ccc(C)c(/C=C/c4cnc5[nH]ccc5c4OC)c3)cc2C(F)(F)F)CC1 | Activin receptor type-1 (ACVR1, Homo sapiens, UniProt Q04771, R206H) | inhibitor, cell-based kinome screen |  | 5 µM | relative to: no inhibitor | log2 fold change | -0.37 |
| COCCOc1ccc2nc3ccc(=O)c(I)c-3oc2c1 | Mycobacterium tuberculosis |  | mc2 6206 clofazimine-resistant fbiC mutant | 7 days |  | MIC90 | 12 µM (≈ 4.77 µg/mL) |

Excerpt of the above:
| Substance | tested on | assay | system | setting | scale | measurement | value |
| --- | --- | --- | --- | --- | --- | --- | --- |
| C[C@H](Cc1ccc(O)c(O)c1)[C@@H](C)Cc1ccc(O)c(O)c1 |  |  | human skin | 3% solution, 8 h, skin UV-treated 30 min |  | amount in epidermis | 12.7 ± 0.88 µg |
| CCN1CCN(Cc2ccc(NC(=O)c3ccc(C)c(/C=C/c4cnc5[nH]ccc5c4OC)c3)cc2C(F)(F)F)CC1 | Activin receptor type-1 (ACVR1, Homo sapiens, UniProt Q04771, R206H) | inhibitor, cell-based kinome screen |  | 5 µM | relative to: no inhibitor | log2 fold change | -0.37 |
| O=C(NOCC1CC1)c1cc(Br)c(F)c(F)c1Nc1ccc(I)cc1Cl | BCHE | enzyme activity, inhibitor |  | Triton-containing buffer |  | IC50 | inactive |
